Published values of several laboratories.
A part holds a random share of what one study measured. Positions count from the first letter of the parent shown.

Block 1
Target: Fragile X messenger ribonucleoprotein 1, C-terminal low-complexity region (Fmr1, Mus musculus, UniProt P35922)
Method: RNA Bind-n-Seq
Molecule type: RNA
Medium: in vitro
Concentration: 200 nM
Notes: whole 134-nt RNA, ends assumed
Together with: 150 mM LiCl
Relative to: input library
Direction: higher = stronger binding
Endpoint: log2 enrichment
Each molecule: 7-deaza-guanosine replaces G
Shared flanks, not repeated: GGGAGUUCUACAGUCCGACGAUC … UGGAAUUCUCGGGUGUCAAGG
AGUCCUGUGCUACACAUCGUAUGUACCGAAUCGGCCCCCGGGGCCCCCGGCCCCCGGAAAGUAUUAUGUUACGCCGUUCGGAUCUGCACU: -1.92
CAAGUCCUGUGCUACACAUCGUAUGUACCGAAUCGGAAAGGUUUGGUUUUUUUGGAAAGUAUUAUGUUACGCCGUUCGGAUCUGCACUUC: -1.69
GUCCUGUGCUACACAUCGUAUGUACCGAAUCGGAAAAAGGGAAAAAGGGAAAAAGGGGAAAGUAUUAUGUUACGCCGUUCGGAUCUGCAC: 0.271
AGAGAAAAGGAACAGUUCCGUAAGCUCUUUAUUGGUGGCUUAAGCUUUGAAACCACAGAAGAAAGUUUGAGGAACUACUACGAACAAUGG: -3.23
CCUCAAGUCCUGUGCUACACAUCGUAUGUACCGAAUCGGUGGGGUGGGGUGGGAAAGUAUUAUGUUACGCCGUUCGGAUCUGCACUUCCA: -0.859
UGUGCUACACAUCGUAUGUACCGAAUCGGGGUUUUUUUGGGGUUUUUUUGGGGUUUUUUUGGAAAGUAUUAUGUUACGCCGUUCGGAUCU: 1.75
UCCUCAAGUCCUGUGCUACACAUCGUAUGUACCGAAUCGGGAGGGAGGGAGGAAAGUAUUAUGUUACGCCGUUCGGAUCUGCACUUCCAG: -0.856
AAGUCCUGUGCUACACAUCGUAUGUACCGAAUCGGGUUUGGGGUUUGGGGUUUGGGAAAGUAUUAUGUUACGCCGUUCGGAUCUGCACUU: -1.82
UGGGAGGUGGAUUUUGUUUAUUUUUUUAGCUCAUUUCCAGGGGUGGGAAUUUUUUUUUAAUAUGUGUCAUGAAUGAAGUUGUUUUUGAAA: 0.324
UGGCCCCGGUGGCAUGCGGGGAGGAAGAGGUGGCCUCAUGGAUCGUGGUGGUCCCGGUGGAAUGUUCAGAGGUGGCCGUGGUGGAGACAG: -0.46
CUGUGCUACACAUCGUAUGUACCGAAUCAAAUUUUUUUAAACCCCCCCAAACCCCCCCAAAAAAGUAUUAUGUUACGCCGUUCGGAUCUG: 1.89

Block 2
Target: CREB3L4, bZIP domain (human)
Method: DHFR protein complementation
Medium: yeast
Notes: single substitutions, most at no-binding floor
Relative to: wild-type JUN-FOS pair
Direction: higher = stronger binding
Endpoint: binding fitness
Starting sequence: JUN, bZIP domain (human); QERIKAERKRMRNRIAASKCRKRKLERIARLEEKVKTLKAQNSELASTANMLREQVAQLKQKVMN; partner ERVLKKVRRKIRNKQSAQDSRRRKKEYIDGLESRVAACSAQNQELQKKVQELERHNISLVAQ
A40C: -1.5 natural log
E44K: -1.53 natural log
L38S: -1.47 natural log
E33W: -1.5 natural log
L45Q: -1.51 natural log
Q55P: -1.48 natural log
K34G: -1.48 natural log
A29E: -1.32 natural log
L31I: -1.52 natural log
E44C: -1.55 natural log
L31W: -1.46 natural log
E54G: -1.47 natural log
L31F: -1.48 natural log
K39F: -1.47 natural log
A46N: -1.53 natural log
T37D: -1.55 natural log

Block 3
Target: Interferon regulatory factor 7, full length, phosphomimetic (IRF7, Homo sapiens, UniProt Q92985, residues 1-503, S101K/S471D/S472D/S475D/S476D/S477D/S483D/S484D/S487D)
Method: protein-binding microarray
Molecule type: double-stranded DNA, one strand shown
Medium: in vitro
Concentration: 250 nM
Notes: 60-bp whole probe
Together with: salmon DNA 0.4 mg/ml
Relative to: random background probes
Direction: higher = stronger binding
Endpoint: log fluorescence
Shared flanks, not repeated: GCCTAGCAC … GTCTTGATTCGCTTGACGCTGCTG
Construct (chain): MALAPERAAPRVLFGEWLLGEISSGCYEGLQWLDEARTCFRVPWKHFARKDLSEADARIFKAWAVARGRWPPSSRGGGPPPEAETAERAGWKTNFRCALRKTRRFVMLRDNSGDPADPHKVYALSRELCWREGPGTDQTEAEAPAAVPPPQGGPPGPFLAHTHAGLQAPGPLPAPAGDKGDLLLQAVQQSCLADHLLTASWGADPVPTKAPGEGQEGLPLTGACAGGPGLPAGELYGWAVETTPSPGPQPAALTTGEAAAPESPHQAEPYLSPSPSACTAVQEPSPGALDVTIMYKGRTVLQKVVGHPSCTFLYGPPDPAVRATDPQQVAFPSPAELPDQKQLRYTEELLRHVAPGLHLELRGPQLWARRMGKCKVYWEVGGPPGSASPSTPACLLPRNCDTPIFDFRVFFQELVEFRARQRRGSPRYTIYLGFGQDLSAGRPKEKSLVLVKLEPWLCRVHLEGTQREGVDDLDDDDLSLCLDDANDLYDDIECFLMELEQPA
TGTTACTAGGGTTACATAATGTGCTAG: 0.517 z-score
TTAGATCTCAGTCTCTATTAGTGCTAG: 0.278 z-score
TTAGGTTTCGACTTTCGGTTCGTGCTA: 11.6 z-score
TGCTTTCTCTTTCATTGCTGCGTGCTA: 3.25 z-score
AAGGTAGCACTTCACAGCAAGTGCTAG: -0.687 z-score
TCAGATCTCAGTCTCGATTAGTGCTAG: 1.42 z-score
GACGGTCTCGGACTGGGGCCGTGCTAG: 0.0162 z-score
TCATTTTTTTTTCTACTACTGTGCTAG: 1.17 z-score
TACGGACTGCTTCTCCTGACGTGCTAG: -0.232 z-score
TTAGATAACGGGTATCGATTAGTGCTA: 0.74 z-score
TTAGGACTGCTTCTCCTATAGTGCTAG: 0.847 z-score
TTAGATGTCAGTTCCGATTAGTGCTAG: 0.611 z-score
GACGATCTCCGACTGGAGACGTGCTAG: -0.345 z-score
TTAGCTTTCGGTATCGGTTAGTGCTAG: 2.54 z-score
TCGGTGATCAGTCTGATGGTGTGCTAG: -0.743 z-score
GACGGTTCCCTTATCCTGACGTGCTAG: 0.982 z-score
GACGATATCGGGACTGGAGCCGTGCTA: -0.493 z-score
GACGGTTTGCTTTCCCTGACGTGCTAG: 0.76 z-score
TTAGGTATCGCTATCGGTTAGTGCTAG: 0.873 z-score
TTAGAACTGAATCTCGATTAGTGCTAG: 0.201 z-score
TCTGTCCTGATAGCCCTGGCGTGCTAG: -0.241 z-score
TCACAATTCTCTTTTCAACTGTGCTAG: 0.823 z-score
TTAGATTTCGGTCTCGGTTAGTGCTAG: 2.99 z-score
TTAGGTATCGACTATCGGTTAGTGCTA: 0.211 z-score
TTAGGTTTCGACTTTTGGTTAGTGCTA: 8.68 z-score

Block 4
Target: RNA binding protein fox-1 homolog 2, RRM domain, GST-SBP tag (RBFOX2, Homo sapiens, UniProt O43251-10, residues 100-194)
Method: RNA Bind-n-Seq
Molecule type: RNA
Medium: in vitro
Concentration: 365 nM
Notes: natural RNA segment, single round, ends assumed
Relative to: no-protein control
Direction: higher = stronger binding
Endpoint: RBNS enrichment (R)
Shared flanks, not repeated: GGGAGUUCUACAGUCCGACGAUC … UGGAAUUCUCGGGUGCCAA
Target sequence (chain): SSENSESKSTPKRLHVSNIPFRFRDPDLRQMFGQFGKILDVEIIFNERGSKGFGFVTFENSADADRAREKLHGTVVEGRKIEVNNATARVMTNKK
GCCAGUUCCUCUCUCGCUCUGUUUCCAGACCUGUCUCUCUCUCUGUCCUGGCAGCUUCUCUGAGGUGCUGCUCGUUUGCAUUAGUCCCGCCUCCUCCAUCUUUCAUGUGG: 0.56
UGAAAAUUAUGAAUUUUUUAUCCAUUACUAACCUUUAAUUUAAUCAAUCAUGUACUUUAGUUUAAUGUAUAAAGAUUUUCUAGGAAAUGAUAUUGUGUAUUAAGACAUUC: 0.507
UUUUGAGGAUAGGUGAGGCCUGAAUUCCUGUCCUUAUUUCUUCUGACCAGAAGUUGCACAGACAUGAUUUGUGCUGGAGUCAAGGGGCAGAACAGAAGAAUCUGACAGGC: 0.525
CGAGCGAGGAGCUGAUGAGUCCCUUGCAGCCUCCAGUCUGACCCAGAGUGGCAGGUAUCCUGGCAUGGCCCAGCCUGCCCUACCCCGAGGAGACUUCCAGGAAGACACGU: 0.359
ACAGCUGACAUGCCUCACUCAGAGAGGGGAAAGGCACUGGGCAGCCUUGAAGGAAGCCCUUCUCUCCCAGACCAAGACAAAGCAGAUUGCAUAGAGGUUCAAGUUCAAAG: 0.384
GGCAGCGCCUGUGCAGACCUCCCUGCAGGCCGCACUGCCAACUGCUGCAUUUGUUGUGUUUUUUAGGUUGCAAUUGGUGAAGUUCACACUUUCAUUGUAAUUUUAGCGUG: 0.492
AUAUAUAUAUGCUGCAUAUAUAUUUAUAAAAUUUCUAGUGGGAGUUCUAUAUAAAAAGAUGUUUCUUUGGUAUUCUUCAGCCUGUGUUUUCAAGUUUUACAGAAGCAGAG: 1.12
UCAACAGAAGUAACUGGUAUAUUCUUAGUAACUUUUCUAUGAACUCUUCAAAAAUGGUCACAGAAUGCCUUUUAAAACAUUGUAUAUAAUCUUCACUGUUUCACCAUCUA: 0.429
UCUGUGACAGGCUCCUCCCCACCCCCGGAUAUCCCGGUGCUGCCAGUAGUGAGUGGACAGAUGGAAGAAGCACCGUGUCAUUUGCCAGAGUACAAAGACACGAUUACAUA: 0.51
AAAAGUAGCAUUCUUAUCUGUUAGAAACAUAGAGUGAGCUUCAUCUGUAAUCCUUAAACUCGAUGUGGUAAGUAGGAAGCAAGAAUUUAUCCUGUGUUUUCAGGCAGCAG: 0.366
GAUAAAGAGAAGGAAACGCUGCAGAGGCACAAGCAUAAGCUGGCUUUGAGUCUUUGAAAGCUUGAUGGCCUCUGCACCCUACUGAAAACCCCCUAAGCCAGCAGGAGCAG: 0.376
GCCCCCUCAGGGAUGUGGGAAUCUCCCAGACUUGUUUCCUGUGCCCAUCAUCUCUGCCUUUGAGUGUGGGACUCCAGGCCAGCUCCUUUUCUGUGAAGCCCUUUGCCUGU: 0.968

Excerpt of the above (block 3):
TTAGATGTCAGTTCCGATTAGTGCTAG: 0.611 z-score
GACGATCTCCGACTGGAGACGTGCTAG: -0.345 z-score
TTAGCTTTCGGTATCGGTTAGTGCTAG: 2.54 z-score
TCGGTGATCAGTCTGATGGTGTGCTAG: -0.743 z-score
GACGGTTCCCTTATCCTGACGTGCTAG: 0.982 z-score
